Experimental data pooled from the literature.
Compare with care: the assays were run in different laboratories.
CSF1R autoinhibited: Macrophage colony-stimulating factor 1 receptor, autoinhibited (CSF1R, Homo sapiens, UniProt P07333)
CSF1R: Macrophage colony-stimulating factor 1 receptor (CSF1R, Homo sapiens, UniProt P07333)

SMILES | target | read-out | method | tested at | reference | remaining binding [%]
Nc1ncc2c(n1)-c1c([nH]c3ccc(C4=CCOCC4)cc13)CCC2 | CSF1R autoinhibited | binding | competition with immobilised ligand | 1 µM | – | 75
COc1cc(Nc2nccc(-c3cnn4nc(OC)ccc34)n2)cc(C(F)(F)F)c1 | CSF1R | binding | competition with immobilised ligand | 1 µM | – | 91
Cc1cnc2nc1Nc1cccc(c1)COC/C=C/COCc1cc(ccc1OCCN1CCOCC1)N2 | CSF1R | binding | – | 0.1 µM | – | 57
CNC1C[S+]2CC[S+]3CC[S+](C1)[Ru-4]321([N]=C=S)[n]2c3ccc(OC)cc3c3c4c(c5cc(F)c[n+]1c5c32)C(=O)NC4=O (stereo not shown) | CSF1R | – | KinomeScan | 0.1 µM | untreated | 55
Cc1ccc(-c2c(/C=C(\C#N)C(=O)NC(C)C)n(CCCO)c3ncnc(N)c23)cc1 | CSF1R | cell-free assay | competition with immobilised ligand | 1 µM | – | 99
CCN1CCN(Cc2ccc(C(=O)Nc3ccc(C)c(NCc4cnc5[nH]ccc5c4OC)c3)cc2C(F)(F)F)CC1 | CSF1R | binding | competition with immobilised ligand | 1 µM | – | 0.55
CC(C)=CC1OC(C)(C)C2C=C3C(=O)C(Cl)=CC(O)C3C3C(O)C4OC4C(=O)C132 (stereo not shown) | CSF1R autoinhibited | cell-free assay | competition with immobilised ligand | 10 µM | – | 95
CCN1CCN(Cc2ccc(NC(=O)c3ccc(C)c(NC(=O)c4cncc(-c5cccs5)c4)c3)cc2C(F)(F)F)CC1 | CSF1R | binding | competition with immobilised ligand | 1 µM | – | 0.35
COc1c(Cl)cccc1Nc1c(-c2ccncc2C#C[C@@]2(C)CCCN2C(=O)/C=C/CN(C)C)[nH]c2c1C(=O)NCC2 | CSF1R autoinhibited | cell-free assay | competition with immobilised ligand | 3 µM | – | 97
C=CC(=O)N1CCCC(n2c(=O)c3ncccc3n(Cc3ccc(Oc4ccccc4)cc3)c2=O)C1 (stereo not shown) | CSF1R autoinhibited | cell-free assay | competition with immobilised ligand | 1 µM | – | 91
C=CC(=O)N1CCc2ccc(-n3c(=O)ccc4cnc5ccc(-c6cnn(C)c6)cc5c43)cc21 | CSF1R | – | KINOMEscan | 1 µM | DMSO control | 98
CN1CCN(Cc2ccc(NC(=O)c3cccc(C#Cc4cnc(N)c5ncccc45)c3)cc2C(F)(F)F)CC1 | CSF1R | cell-free assay | competition with immobilised ligand | 0.5 µM | – | 0.1
CNC(=O)C1CCN(c2cc(C)c(F)cc2NC(=O)c2ccc(-c3cc(O)ccc3C)c(C)c2)CC1 | CSF1R autoinhibited | binding | competition with immobilised ligand | 1 µM | – | 96

For quick reference, copied from above:
SMILES | target | read-out | method | tested at | reference | remaining binding [%]
C=CC(=O)N1CCCC(n2c(=O)c3ncccc3n(Cc3ccc(Oc4ccccc4)cc3)c2=O)C1 (stereo not shown) | CSF1R autoinhibited | cell-free assay | competition with immobilised ligand | 1 µM | – | 91
C=CC(=O)N1CCc2ccc(-n3c(=O)ccc4cnc5ccc(-c6cnn(C)c6)cc5c43)cc21 | CSF1R | – | KINOMEscan | 1 µM | DMSO control | 98
